Results pooled from the literature.
Parts stem from different laboratories: compare values within a part only.
UniProt P42336, sequence (whole entry, unmodified, looked up): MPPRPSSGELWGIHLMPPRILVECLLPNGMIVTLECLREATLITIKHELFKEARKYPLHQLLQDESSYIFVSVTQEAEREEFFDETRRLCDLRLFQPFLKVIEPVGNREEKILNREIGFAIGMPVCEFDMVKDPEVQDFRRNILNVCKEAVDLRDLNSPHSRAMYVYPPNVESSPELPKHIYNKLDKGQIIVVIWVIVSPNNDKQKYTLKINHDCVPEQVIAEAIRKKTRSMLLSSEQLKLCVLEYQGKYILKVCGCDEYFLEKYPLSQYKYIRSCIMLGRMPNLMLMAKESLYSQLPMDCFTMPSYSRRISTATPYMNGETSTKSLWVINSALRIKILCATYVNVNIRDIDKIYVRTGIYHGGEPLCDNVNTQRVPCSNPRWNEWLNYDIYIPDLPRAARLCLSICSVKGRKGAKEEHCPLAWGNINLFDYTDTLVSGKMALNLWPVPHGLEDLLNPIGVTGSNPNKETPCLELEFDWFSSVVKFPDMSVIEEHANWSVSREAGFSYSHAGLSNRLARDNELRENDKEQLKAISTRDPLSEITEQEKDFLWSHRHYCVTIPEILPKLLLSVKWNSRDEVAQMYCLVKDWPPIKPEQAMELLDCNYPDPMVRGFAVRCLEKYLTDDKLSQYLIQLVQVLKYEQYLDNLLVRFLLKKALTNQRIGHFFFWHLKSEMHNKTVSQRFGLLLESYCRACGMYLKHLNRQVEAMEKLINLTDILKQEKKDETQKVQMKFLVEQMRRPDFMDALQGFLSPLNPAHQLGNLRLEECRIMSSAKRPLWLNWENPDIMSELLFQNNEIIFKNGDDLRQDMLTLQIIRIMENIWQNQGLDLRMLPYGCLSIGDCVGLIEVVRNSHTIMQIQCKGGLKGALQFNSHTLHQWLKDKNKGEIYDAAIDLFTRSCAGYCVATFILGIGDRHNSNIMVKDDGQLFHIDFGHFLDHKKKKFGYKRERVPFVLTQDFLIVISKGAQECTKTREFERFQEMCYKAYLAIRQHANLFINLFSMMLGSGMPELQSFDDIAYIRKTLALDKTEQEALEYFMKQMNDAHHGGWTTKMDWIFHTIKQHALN
UniProt O94804, sequence (whole entry, looked up): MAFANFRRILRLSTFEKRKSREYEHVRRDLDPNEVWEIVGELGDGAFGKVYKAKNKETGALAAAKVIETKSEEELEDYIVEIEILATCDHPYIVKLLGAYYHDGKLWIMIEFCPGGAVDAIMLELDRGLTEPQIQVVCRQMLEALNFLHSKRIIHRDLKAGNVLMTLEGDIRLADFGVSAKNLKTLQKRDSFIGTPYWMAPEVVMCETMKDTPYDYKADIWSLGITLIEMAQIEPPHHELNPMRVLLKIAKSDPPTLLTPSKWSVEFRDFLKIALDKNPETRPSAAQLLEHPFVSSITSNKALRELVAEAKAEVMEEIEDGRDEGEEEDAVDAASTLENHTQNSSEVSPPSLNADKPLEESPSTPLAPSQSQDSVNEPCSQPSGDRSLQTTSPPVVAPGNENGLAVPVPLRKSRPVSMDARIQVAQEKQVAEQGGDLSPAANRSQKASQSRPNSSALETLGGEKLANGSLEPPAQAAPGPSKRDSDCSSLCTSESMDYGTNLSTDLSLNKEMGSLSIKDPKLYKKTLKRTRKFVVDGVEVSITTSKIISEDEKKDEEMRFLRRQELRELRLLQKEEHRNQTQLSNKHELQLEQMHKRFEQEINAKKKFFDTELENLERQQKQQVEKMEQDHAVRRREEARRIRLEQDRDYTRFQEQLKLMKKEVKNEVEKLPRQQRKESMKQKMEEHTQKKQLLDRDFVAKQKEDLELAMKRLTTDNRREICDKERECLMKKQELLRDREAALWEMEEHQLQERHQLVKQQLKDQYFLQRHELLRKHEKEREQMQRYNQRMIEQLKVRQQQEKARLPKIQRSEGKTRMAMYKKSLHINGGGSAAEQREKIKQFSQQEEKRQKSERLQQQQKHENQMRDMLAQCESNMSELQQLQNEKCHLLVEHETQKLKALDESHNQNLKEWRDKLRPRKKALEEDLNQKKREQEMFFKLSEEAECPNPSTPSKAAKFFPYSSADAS
UniProt O15111, sequence (whole entry, looked up): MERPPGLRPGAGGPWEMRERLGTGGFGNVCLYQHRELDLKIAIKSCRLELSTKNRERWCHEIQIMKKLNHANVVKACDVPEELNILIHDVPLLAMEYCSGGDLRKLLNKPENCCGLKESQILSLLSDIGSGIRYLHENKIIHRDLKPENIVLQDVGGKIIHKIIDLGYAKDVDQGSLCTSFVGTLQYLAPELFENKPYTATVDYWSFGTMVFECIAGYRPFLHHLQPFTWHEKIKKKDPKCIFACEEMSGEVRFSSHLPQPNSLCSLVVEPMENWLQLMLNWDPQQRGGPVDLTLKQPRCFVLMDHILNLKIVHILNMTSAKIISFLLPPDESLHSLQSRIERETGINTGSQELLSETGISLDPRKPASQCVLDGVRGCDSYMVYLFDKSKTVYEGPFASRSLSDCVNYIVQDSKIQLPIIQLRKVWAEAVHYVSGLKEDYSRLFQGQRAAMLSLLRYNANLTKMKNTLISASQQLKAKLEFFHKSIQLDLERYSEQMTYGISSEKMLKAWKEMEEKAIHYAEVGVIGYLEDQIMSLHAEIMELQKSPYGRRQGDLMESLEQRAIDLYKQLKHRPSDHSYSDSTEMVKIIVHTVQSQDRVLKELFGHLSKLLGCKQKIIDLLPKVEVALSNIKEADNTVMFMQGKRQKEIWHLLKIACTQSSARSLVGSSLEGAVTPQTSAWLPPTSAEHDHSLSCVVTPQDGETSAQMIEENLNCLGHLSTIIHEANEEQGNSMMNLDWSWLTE
UniProt O43318, sequence (whole entry, looked up): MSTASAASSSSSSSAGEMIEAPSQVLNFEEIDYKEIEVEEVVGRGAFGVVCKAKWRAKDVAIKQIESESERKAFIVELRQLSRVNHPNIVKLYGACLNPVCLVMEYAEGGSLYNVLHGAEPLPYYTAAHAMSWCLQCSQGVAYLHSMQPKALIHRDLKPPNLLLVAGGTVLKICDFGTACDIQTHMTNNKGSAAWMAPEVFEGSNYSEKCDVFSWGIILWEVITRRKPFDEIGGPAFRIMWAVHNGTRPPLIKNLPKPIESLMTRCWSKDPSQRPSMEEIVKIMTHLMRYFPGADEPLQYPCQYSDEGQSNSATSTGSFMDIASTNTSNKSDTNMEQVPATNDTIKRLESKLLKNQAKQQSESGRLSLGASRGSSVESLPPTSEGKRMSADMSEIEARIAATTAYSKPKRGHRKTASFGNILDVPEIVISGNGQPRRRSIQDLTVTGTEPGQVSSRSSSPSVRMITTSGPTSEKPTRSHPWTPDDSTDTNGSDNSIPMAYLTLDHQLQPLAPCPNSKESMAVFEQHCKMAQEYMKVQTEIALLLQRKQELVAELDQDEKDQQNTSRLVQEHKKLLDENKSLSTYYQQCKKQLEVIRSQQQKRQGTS

Set 1
Target: Beta-1 adrenergic receptor (ADRB1, Homo sapiens, UniProt P08588)
UniProt P08588, sequence (whole entry, looked up): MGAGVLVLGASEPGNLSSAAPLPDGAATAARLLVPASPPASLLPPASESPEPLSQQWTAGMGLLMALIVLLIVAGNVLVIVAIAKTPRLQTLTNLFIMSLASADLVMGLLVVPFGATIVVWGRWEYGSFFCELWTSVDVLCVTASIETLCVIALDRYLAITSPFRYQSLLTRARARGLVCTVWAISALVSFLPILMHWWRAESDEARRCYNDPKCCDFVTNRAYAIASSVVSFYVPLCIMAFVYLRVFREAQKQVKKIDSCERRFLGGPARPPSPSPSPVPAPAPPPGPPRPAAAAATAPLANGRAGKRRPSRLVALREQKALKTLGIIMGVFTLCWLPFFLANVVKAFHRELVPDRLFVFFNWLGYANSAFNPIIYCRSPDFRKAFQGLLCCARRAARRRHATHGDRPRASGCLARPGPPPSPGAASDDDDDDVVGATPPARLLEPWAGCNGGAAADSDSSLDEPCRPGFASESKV
Mode: antagonist
`Cn1cc(-c2cnc(Nc3cccnc3)c3c2CCO3)cn1` has an IC50 of ≥ 100 µM.
With `CCCN(CCc1ccccc1)C1CCc2c(O)cccc2C1` (stereo not shown) the IC50 was ≥ 100 µM.
For `c1ccc2nc(C3=NCCN3)ccc2c1`, the IC50 was ≥ 100 µM.
The IC50 of `CC(=O)Oc1c(C)cc(OCC(O)CNC(C)C)c(C)c1C` (stereo not shown) is reported as ≥ 100 µM.
With `O=C1c2ccccc2C(=O)N1c1ccc2ccccc2n1` the IC50 was ≥ 100 µM.
The IC50 of `COc1ccccc1N1CCN([C@@H]2[C@H](O)[C@H](CO)O[C@@H]2CNC(=O)c2ccc(F)c(Cl)c2)CC1` is reported as ≥ 100 µM.
The IC50 of `O=c1c2c3c(sc2ncn1CC(O)COc1ccc(Cl)cc1Cl)CCC3` (stereo not shown) is reported as ≥ 100 µM.
`Cc1cccc2ncc(-c3cccc(NC4CNC4)n3)n12` has an IC50 of ≥ 100 µM.
The IC50 of `COc1cc(CNC(C)C)ccc1OCC(O)CN1CCSCC1` (stereo not shown) is reported as ≥ 100 µM.
With `Cc1cc(-c2cc(-c3ccc(F)cc3)nc3c(C)noc23)ccn1` the IC50 was ≥ 100 µM.
The IC50 of `O=C1c2cnc(-c3ccsc3)nc2OCCN1c1ccccc1` is reported as ≥ 100 µM.

Set 2
SMILES: Cc1nc(N2CC[C@@H](O)C2)ncc1-c1cc(C(F)(F)F)cc2[nH]ncc12
Method: competition with immobilised ligand
Tested at: 1 µM
It gave 100% for remaining binding (Serine/threonine-protein kinase pim-3 (PIM3, Homo sapiens, UniProt Q86V86); binding).
The remaining binding was 96% (Dual specificity tyrosine-phosphorylation-regulated kinase 1B (DYRK1B, Homo sapiens, UniProt Q9Y463); cell-free assay).
Serine/threonine-protein kinase 10 (STK10, Homo sapiens, UniProt O94804); binding — remaining binding: 100%.
For Phosphatidylinositol 4,5-bisphosphate 3-kinase catalytic subunit alpha isoform (PIK3CA, Homo sapiens, UniProt P42336, E542K); cell-free assay: remaining binding read 52%.
For Epidermal growth factor receptor (EGFR, Homo sapiens, UniProt P00533, T790M); cell-free assay: remaining binding read 93%.
The remaining binding was 66% (Serine/threonine-protein kinase haspin (HASPIN, Homo sapiens, UniProt Q8TF76); cell-free assay).
It gave 76% for remaining binding (Inhibitor of nuclear factor kappa-B kinase subunit alpha (CHUK, Homo sapiens, UniProt O15111); cell-free assay).
For Mitogen-activated protein kinase kinase kinase 7 (MAP3K7, Homo sapiens, UniProt O43318); binding: remaining binding read 89%.
For Epidermal growth factor receptor (EGFR, Homo sapiens, UniProt P00533, del746-750); cell-free assay: remaining binding read 90%.
For Serine/threonine-protein kinase/endoribonuclease IRE1 (ERN1, Homo sapiens, UniProt O75460); cell-free assay: remaining binding read 86%.
The remaining binding was 65% (Glycogen synthase kinase-3 beta (GSK3B, Homo sapiens, UniProt P49841); cell-free assay).
It gave 61% for remaining binding (Ephrin type-A receptor 8 (EPHA8, Homo sapiens, UniProt P29322); cell-free assay).
For RAF proto-oncogene serine/threonine-protein kinase (RAF1, Homo sapiens, UniProt P04049); binding: remaining binding read 100%.
The remaining binding was 77% (Epidermal growth factor receptor (EGFR, Homo sapiens, UniProt P00533, L858R); cell-free assay).
Ankyrin repeat and protein kinase domain-containing protein 1 (ANKK1, Homo sapiens, UniProt Q8NFD2); binding — remaining binding: 85%.
For Proto-oncogene tyrosine-protein kinase Src (SRC, Homo sapiens, UniProt P12931); cell-free assay: remaining binding read 95%.
Mitogen-activated protein kinase kinase kinase 15 (MAP3K15, Homo sapiens, UniProt Q6ZN16); binding — remaining binding: 100%.
The remaining binding was 70% (Non-receptor tyrosine-protein kinase TYK2, JH2 (TYK2, Homo sapiens, UniProt P29597); binding).
It gave 82% for remaining binding (Phosphatidylinositol 4,5-bisphosphate 3-kinase catalytic subunit alpha isoform (PIK3CA, Homo sapiens, UniProt P42336, Q546K); cell-free assay).
Hepatocyte growth factor receptor (MET, Homo sapiens, UniProt P08581, M1250T); cell-free assay — remaining binding: 92%.
Serine/threonine-protein kinase SBK1 (SBK1, Homo sapiens, UniProt Q52WX2); binding — remaining binding: 82%.
For Hepatocyte growth factor receptor (MET, Homo sapiens, UniProt P08581, Y1235D); cell-free assay: remaining binding read 81%.
For Serine/threonine-protein kinase 3 (STK3, Homo sapiens, UniProt Q13188); binding: remaining binding read 80%.
It gave 56% for remaining binding (Mitogen-activated protein kinase kinase kinase 13 (MAP3K13, Homo sapiens, UniProt O43283); binding).
The remaining binding was 86% (Serine/threonine-protein kinase VRK2 (VRK2, Homo sapiens, UniProt Q86Y07); binding).

Set 3
Host: human
Medium: microsomes or S9
Tested at: 2 µM
Time: 0.5 h
The remaining compound of `COC(=O)c1ccc2c(c1)nc(-c1ccc(C(C)(C)C)cc1)n2Cc1ccc(F)cc1` is reported as 94.7%.
For `O=C(CCn1ccc2ccc(F)cc21)Nc1nc[nH]n1`, the remaining compound was 85%.
The remaining compound of `CC1CCN(c2ccc(-c3noc(C(=O)NCCc4nc5ccccc5[nH]4)n3)cc2)CC1` is reported as 70.5%.
For `CC(C)(C)OC(=O)N1CCCCC1CCOc1ccc2c(c1)CN(c1ccc(S(C)(=O)=O)cc1F)C2=O` (stereo not shown), the remaining compound was 60.3%.
The remaining compound of `N#Cc1ccc2nc(-n3cncn3)c(-c3ccc(Cl)cc3Cl)c(C#N)c2c1` is reported as > 100%.
`COc1ccc(-n2cc(CO)c3cnc4c(OC)cccc4c32)c(C)c1` has a remaining compound of 70.6%.
`CSc1cccc(NC(=O)N2Cc3c(sc4c3CCCC4)-n3cccc3C2C)c1` (stereo not shown) has a remaining compound of 8.41%.
The remaining compound of `CCc1cc2c(Nc3ccc(OC)cc3OC)ncnc2s1` is reported as 5.3%.
The remaining compound of `Cc1cc(-c2cc(=O)n(Cc3ccc(F)cc3Cl)nc2-c2ccco2)on1` is reported as 92.3%.
The remaining compound of `CN1C(=O)C(CC(=O)N2CCN(c3ccccn3)CC2)=C2CCCCC21` (stereo not shown) is reported as 20.4%.

Set 4
Target: Calcium/calmodulin-dependent protein kinase type II subunit alpha (CAMK2A, Homo sapiens, UniProt Q9UQM7)
UniProt Q9UQM7, sequence (whole entry, looked up): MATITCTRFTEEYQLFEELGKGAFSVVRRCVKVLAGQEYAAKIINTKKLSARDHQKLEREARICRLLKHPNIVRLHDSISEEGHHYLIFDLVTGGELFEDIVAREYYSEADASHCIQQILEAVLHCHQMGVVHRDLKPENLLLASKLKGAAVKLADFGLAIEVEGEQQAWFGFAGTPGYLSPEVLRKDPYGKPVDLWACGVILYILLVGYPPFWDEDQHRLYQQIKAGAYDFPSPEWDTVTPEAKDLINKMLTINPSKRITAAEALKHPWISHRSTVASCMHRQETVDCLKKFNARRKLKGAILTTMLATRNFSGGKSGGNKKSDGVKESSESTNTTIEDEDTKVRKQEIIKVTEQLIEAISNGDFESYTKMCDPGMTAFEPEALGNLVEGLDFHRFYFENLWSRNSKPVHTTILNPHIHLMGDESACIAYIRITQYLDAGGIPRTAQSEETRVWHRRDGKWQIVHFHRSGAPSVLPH
Read-out: enzyme activity
Mode: inhibitor
Tested at: 10 µM
`CCCCCCCCCCCCCC(=O)O[C@H]1CC[C@@]2(C)C(=CC[C@H]3[C@@H]4CC[C@H]([C@H](C)CCCC(C)C)[C@@]4(C)CC[C@@H]32)C1` has an inhibition of 5%.
For `CN1CC(=O)NC1=O`, the inhibition was -14%.
`CC[C@H](C)[C@@H]1NC(=O)[C@@H]2CCCN2C(=O)[C@@H]2CCCN2C(=O)[C@@H]2CCCN2C(=O)[C@H](CC(C)C)NC(=O)CNC(=O)CNC(=O)[C@H](Cc2ccccc2)NC1=O` gave an inhibition of 25%.
The inhibition of `COc1ccc(C2C(=O)c3ccccc3C2=O)cc1` is reported as -7%.
`CC1(C)[C@H]2CC=C(C=O)[C@@H]1C2` gave an inhibition of -3%.
The inhibition of `CC(=O)OC(C)(C)CC(=O)O[C@H](CC=C(C)C)C1=CC(=O)c2c(O)ccc(O)c2C1=O` is reported as -10%.
`COc1ccc2c(c1O)-c1c(O)c(OC)cc3c1[C@H](C2)[N+](C)(C)CC3` gave an inhibition of 57%.
`CC1CNC(=O)NC1=O` (stereo not shown) has an inhibition of 2%.
With `CNC(=O)c1cnn(-c2nc(N)c3ncn([C@@H]4O[C@H](CO)[C@@H](O)[C@H]4O)c3n2)c1` the inhibition was -3%.
For `O=C(CCCN1CCC(O)(c2ccc(Cl)cc2)CC1)c1ccc(F)cc1`, the inhibition was -14%.
For `COc1cc2c(cc1O)[C@@H](Cc1ccc(O)c(Oc3ccc(C[C@@H]4c5cc(OC)c(OC)cc5CCN4C)cc3)c1)N(C)CC2`, the inhibition was -4%.
`Nc1nc(=O)n([C@@H]2CS[C@H](CO)O2)cc1F` has an inhibition of 3%.

Excerpt of the above (set 2):
Serine/threonine-protein kinase 10 (STK10, Homo sapiens, UniProt O94804); binding — remaining binding: 100%.
The remaining binding was 86% (Serine/threonine-protein kinase VRK2 (VRK2, Homo sapiens, UniProt Q86Y07); binding).
It gave 100% for remaining binding (Serine/threonine-protein kinase pim-3 (PIM3, Homo sapiens, UniProt Q86V86); binding).
For Mitogen-activated protein kinase kinase kinase 7 (MAP3K7, Homo sapiens, UniProt O43318); binding: remaining binding read 89%.
It gave 76% for remaining binding (Inhibitor of nuclear factor kappa-B kinase subunit alpha (CHUK, Homo sapiens, UniProt O15111); cell-free assay).
The remaining binding was 77% (Epidermal growth factor receptor (EGFR, Homo sapiens, UniProt P00533, L858R); cell-free assay).
For Serine/threonine-protein kinase 3 (STK3, Homo sapiens, UniProt Q13188); binding: remaining binding read 80%.
